Experimental data collected from several papers.
Several values in a cell are separate wells, animals, samples, runs or records. Numbers after ± are the reported error.
UniProt P37231, sequence (whole entry, looked up): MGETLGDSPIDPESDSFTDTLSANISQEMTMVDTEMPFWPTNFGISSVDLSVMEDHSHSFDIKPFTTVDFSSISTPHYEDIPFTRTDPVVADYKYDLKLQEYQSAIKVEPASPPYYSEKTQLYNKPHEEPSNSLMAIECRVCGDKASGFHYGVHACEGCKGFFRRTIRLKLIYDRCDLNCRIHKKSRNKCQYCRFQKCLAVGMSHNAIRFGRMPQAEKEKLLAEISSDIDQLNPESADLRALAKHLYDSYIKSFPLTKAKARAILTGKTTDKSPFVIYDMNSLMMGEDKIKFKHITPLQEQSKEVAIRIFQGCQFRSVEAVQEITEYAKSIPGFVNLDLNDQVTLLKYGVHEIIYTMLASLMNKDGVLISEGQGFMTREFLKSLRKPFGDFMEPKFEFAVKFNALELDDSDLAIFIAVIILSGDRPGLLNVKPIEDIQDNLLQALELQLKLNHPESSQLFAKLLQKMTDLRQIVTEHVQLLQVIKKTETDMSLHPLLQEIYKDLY

SMILES	tested on	assay	test system	conditions	scale	endpoint	value
CCN(CC)CC(=O)Nc1cccc(-n2cc(-c3ccc4ccc(-c5cn(-c6cccc(NC(=O)CN(CC)CC)c6)nn5)cc4c3)nn2)c1	RCC4	PCR angiogenesis array, measured: IL1B		5 x IC50, 6 h, normoxia	reference: untreated	fold regulation	-3.05
O=C(CSc1cccc[n+]1[O-])c1ccccc1Br	LDR	silenced CMV-GFP reporter derepression, qHTS				efficacy	80%
Cc1c(Cc2cccc(OC(C)C(=O)O)c2)c2ccc(C(=O)NC(C)c3ccc(C(C)C)cc3)cc2n1C (mixture of isomers)	Peroxisome proliferator-activated receptor gamma (PPARG, Homo sapiens, UniProt P37231)	ligand displacement, TR-FRET				IC50	42 nM
Cc1cc(Cl)cc(-c2ccnc3cc(CN4C(=O)C5C(C4=O)C5(C)C)sc23)c1C[C@@H]1CNCCO1 (stereo partly drawn)	CHP-212 resistant	PI flow cytometry		1 µM, 24 h		G1 phase cells	75.9%
COCC/N=C(\S)N/N=C(\C)c1ccccc1O	LDR	silenced CMV-GFP reporter derepression, qHTS				Emax	65%
CNS(=O)(=O)Nc1nccc(Cc2c(C)c3ccc(Oc4ncccc4F)cc3oc2=O)c1F	SU-DHL-16	cell viability		7 days		IC50	> 1000 nM
CCCCCCCCCCCCCCCC(=O)OCC(CSC[C@H](N)C(=O)N[C@@H](CO)C(=O)N[C@@H](CCCCN)C(=O)N[C@@H](CCCCN)C(=O)N[C@@H](CCCCN)C(=O)N[C@@H](CCCCN)C(=O)NCCCCCC(=O)N[C@@H](CCCCN)C(=O)N[C@@H](CC(C)C)C(=O)N[C@H](C(=O)N[C@@H](Cc1ccccc1)C(=O)N[C@@H](Cc1ccccc1)C(=O)N[C@@H](Cc1ccc2ccccc2c1)C(=O)O)C(C)C)OC(=O)CCCCCCCCCCCCCCC (stereo partly drawn)	BV-2	Western blot, measured: NLRP3		concentration not given	reference: control	relative protein level	2.12 and 2.06
COc1ccccc1-c1ccncc1C(=O)Nc1nnc(OCc2ccc(Cl)cc2)s1	DLD-1 BRCA2-knockout	immunofluorescence		5 µM, 96 h, >5 foci per nucleus		γH2AX foci-positive nuclei	51.7% and 44% and 48.2%
Cc1cc(NC2CCN(C)CC2)ccc1-c1cc2c(N3CCC[C@H](C(=O)Nc4ccc(C(F)(F)F)cc4)C3)ncnc2[nH]1	NCI-H2228	cell growth or viability, MTT		1 µg/mL, 72 h		inhibition	80.3%
Cn1ncc2cc(-c3cncc(Cl)c3N3CCC4(CCNC4=O)CC3)ccc21	LS174T	gene expression, microarray, measured: ABCA1 mRNA		concentration not given, 4 h	reference: untreated cells	log2 fold change	1.1
N#Cc1cccc(/C=C/C(=O)c2ccc(O)cc2)c1	U-87 MG	measured: CTH		concentration not given	reference: untreated	fold change	41.9
Cc1cc(NC2CCN(C)CC2)ccc1-c1cc2c(N3CCC[C@H](C(=O)Nc4ccc(C#N)cc4)C3)ncnc2[nH]1	NCI-H2228	cell growth or viability, MTT		5 µg/mL, 72 h		inhibition	91.3%
C=CC(=O)Nc1cccc(Cn2ncc3cnc(Nc4cnn(CCOC)c4)nc32)c1	MEK6 human	binding, KINOMEscan		100 nM	lower = stronger binding	percent of control	86%
Cc1cc(N2CCCCC2)ccc1-c1cc2c(N3CCC[C@H](C(=O)NCc4ccc(OC(F)(F)F)cc4)C3)ncnc2[nH]1	NCI-H2228	cell growth or viability, MTT		5 µg/mL, 72 h		inhibition	90.8%
CN1CCCNC(=O)c2cccc(c2)C(=O)NCCCN(C)CCCNc2cccc3c2C(=O)c2cccc(c2C3=O)NCCC1	SAS	RNA-Seq, measured: CDCA7 mRNA		1 µM, 6 h	reference: untreated cells	log2 fold change	-1.07
Cc1cc(NC2CCN(C)CC2)ccc1-c1cc2c(N3CCC[C@H](C(=O)N[C@@H](C)c4ccccc4)C3)ncnc2[nH]1	NCI-H2228	cell growth or viability, MTT		1 µg/mL, 72 h		inhibition	74.3%
COC(=O)c1cc(NC2=NC(=O)C(=Cc3ccc(N(C)C)cc3)S2)ccc1OC(C)=O	MCF7	GC-MS, measured: Spermine		1 µM	reference: DMSO	metabolite level	-0.29 fold change
[BH3-][P+]1(c2ccccc2)CCCCC1	SW480	MTT		72 h	reference: IC50 HaCaT over IC50 SW480	selectivity index	13.8
CCN(C(=O)c1cc(F)ccc1Oc1nncnc1N1CCC2(C1)CN([C@H](CCCN(C)CCOC)C(C)C)C2)C(C)C	SNB-75		brain	168 h		GI50	> 10000 nM
CC1(C)C[C@@H](Nc2cccc(-c3sc(C(=O)O)c(OCC(=O)O)c3Cl)c2)CCN1S(=O)(=O)Cc1cccc(NC(=O)CN2CCC(c3ccc4c(c3)oc(=O)n4C3CCC(=O)NC3=O)CC2)c1 (stereo partly drawn)	B16-F10	HTRF, measured: phospho-STAT1 Tyr701		0.041 µM, added: IFN-γ	reference: DMSO	fold change	1.69 and 1.64 and 1.48 and 1.37 and 1.6 and 1.5
Cc1cc(NC2CCN(C)CC2)ccc1-c1cc2c(N3CCC[C@H](C(=O)N4CCCCC4)C3)ncnc2[nH]1	NCI-H2228	cell growth or viability, MTT		5 µg/mL, 72 h		inhibition	89.8%
CCCC[C@H](NC(=O)[C@H](CC(C)C)NC(=O)[C@H](CO)NC(=O)[C@H](CO)NC(=O)[C@H](C)NC(=O)[C@H](CO)NC(=O)[C@H](C)N)C(=O)N[C@@H](CC(=O)O)C(=O)N[C@@H](CCCCN)C(=O)N[C@@H](CCC(=O)O)C(=O)N[C@@H](C)C(=O)N[C@H](C(=O)N[C@@H](Cc1ccc(O)cc1)C(=O)N[C@@H](Cc1ccccc1)C(=O)N[C@@H](C)C(=O)N[C@@H](Cc1c[nH]cn1)C(=O)N[C@@H](CC(C)C)C(=O)N[C@@H](CC(=O)O)C(=O)N[C@H](C(=O)N[C@H](C(=O)N[C@@H](Cc1c[nH]c2ccccc12)C(=O)O)[C@@H](C)CC)[C@@H](C)CC)C(C)C	COS-7 ETBR-GFP	calcium flux, agonist		ETBR/ETAR ratio 1:0.5		Emax	90 ± 5%
Cn1ncc(-c2ccc3c(=O)[nH]nc(CN)c3c2)c1-c1c(F)c(Cl)cc(OC2CC2)c1C#N	NB-4	cell viability, inhibitor, CellTiter-Glo		120 h, baseline-subtracted		IC50	20 nM
O=C(Nc1cnccc1-c1ccc([18F])cc1)c1ccnc(NC(=O)C2CC2)c1			FVB/NJ mice (both sexes), muscle	intravenous, dose not given, 120 min		SUV	0.11
COc1cc(OC)c(F)c(/C=C/c2cnc3ccn(S(=O)(=O)c4cn(CCF)cn4)c3n2)c1F	SNU-16 (FGFR2-amplified)	cell proliferation		37.0 nM		inhibition	37.6% and 22.7%
Cc1ncsc1-c1ccc(C(C)NC(=O)C2CC(O)CN2C(=O)C(NC(=O)CCCCCCCCCCN2CCCC(Nc3ncc(Cl)c(Nc4ccccc4S(=O)(=O)C(C)C)n3)C2)C(C)(C)C)cc1 (stereo not drawn)	22Rv1	RNA-seq, measured: ZKSCAN1 mRNA		concentration not given	reference: DMSO	log2 fold change	-1.26

SMILES	tested on	assay	test system	conditions	scale	endpoint	value
COc1ccccc1-c1ccncc1C(=O)Nc1ccc(OCc2ccc(Cl)cc2)nn1	DLD-1 BRCA2-/-			10 µM	reference: untreated	colony survival	98.3% and 102% and 98%
COc1cccc(OC)c1-c1cc(C(=O)NC2(C(=O)O)C3CC4CC(C3)CC2C4)nn1-c1ccc(C(=O)N(C)CCCN(C)CCCN(C)C(=O)[C@H](CCCCNC(=O)[C@H](CC(C)C)NC(=O)C2OC2C(=O)O)NC(=O)CN2CCN(CC(=O)[O-])CCN(CC(=O)[O-])CCN(CC(=O)[O-])CC2)cc1C(C)C.[177Lu+3] (mixture of isomers)	HT-29			concentration not given, 120 min	reference: added activity	internalized fraction	4.23 ± 0.26%
COCCCCCNc1nc(NCCCCCCN(C)C)c2cc(NC(=O)/C=C/CN(C)C)ccc2n1	MCF7	CellTiter-Glo		0.09766 µM, 24 h, unit not given	reference: DMSO-treated cells	viability	1.01 and 0.959
O=C(NCc1ccc(OC(F)(F)F)cc1)[C@H]1CCCN(c2ncnc3[nH]c(-c4ccc(N5CCOCC5)cc4)cc23)C1	NCI-H2228	cell growth or viability, MTT		0.008 µg/mL, 72 h		inhibition	18.3%
Cc1sc2c(c1C)C(c1ccc(Cl)cc1)=N[C@@H](CC(=O)NCC(=O)N1CCC3(CCC(C(=O)N4CCN(C(=O)c5cc(Cc6n[nH]c(=O)c7ccccc67)ccc5F)CC4)CC3)CC1)c1nnc(C)n1-2	NCI-H82			1000 nM, 24 h		cells in S phase	83%
C=CC(=O)Oc1ccc(OC)c(-c2c[nH]c3ncc(-c4cncc(C(=O)N(C)C)c4)cc23)c1	Ba/F3 BCR-ABL T315I	cell proliferation		72 h		GI50	61.9 ± 35.6 nM
COC(=O)c1cc(NC2=NC(=O)C(=Cc3ccc(C)cc3)S2)ccc1OC(C)=O	MCF7	GC-MS, measured: Phosphoric acid		1 µM	reference: DMSO	metabolite level	0.19 fold change
COC1CN([C@H]2CC[C@H]([C@@]3(C)Oc4c(Cl)cc(C(=O)NCc5c(SC)cc(C)[nH]c5=O)c(C)c4O3)CC2)C1		RNA-seq, measured: NRTN mouse homolog	mouse, HT-1376 xenograft, whole blood	dose not given	reference: vehicle	log2 fold change	3.78
Oc1c(/N=N/c2ccccn2)ccc2ccccc12	LDR	silenced CMV-GFP reporter derepression, qHTS				efficacy	124%
CC(C)c1ccc(N(C)c2ccc3c(c2)OCC[C@H]3CNc2cnccc2C(=O)O)cc1	TE-9	cell viability, CellTiter-Glo		7 days		IC50	6.89 nM
COC1=C2CC(C)CC(OC)C(O)C(C)C=C(C)C(OC(N)=O)C(OC)C=CC=C(C)C(=O)NC(=CC1=O)C2=O (stereo not drawn)	Rh30	ChIP-seq, measured: H3K36me3 peak		concentration not given, KLF2 TTS chr19:16435200-16441599	reference: untreated control	log fold change	-1.15
O=C(C[Se]C(=O)c1ccccc1Nc1ccccc1)Nc1cccc(C(F)(F)F)c1	NCI60 renal subpanel	cell growth		10 µM, 48 h, one-dose		mean growth percent	-79.6%
COc1ccc(CSc2ncccn2)cc1OS(=O)(=O)c1ccc([N+](=O)[O-])cc1	HUVEC expressing APJ	cell migration, Transwell		concentration not given		inhibition	~50%
Nc1ncc(-c2cc(-c3cnn(CC(F)(F)F)c3)ncc2F)nc1C(=O)NC1CNCC(F)C1 (stereo not drawn)	HUNK	KINOMEscan		1 µM	reference: DMSO control	remaining binding	94%
CO[C@@H]1[C@@H](OC(N)=O)[C@@H](O)[C@H](Oc2ccc3c(O)c(NC(=O)c4ccc(O)c(CC=C(C)C)c4)c(=O)oc3c2C)OC1(C)C	HCT-116 BRCA2 wild-type			250 µM, mean of replicates A, B	reference: untreated	colony survival	41.3%
O=C(N1CCCC1)n1cc(-c2ccc(-c3ccccc3)cc2)nn1	mouse T cells	N-terminal labelling proteomics, measured: Ndrg1 N-terminal peptide		0.001 µM, 6 h	reference: DMSO	SILAC ratio per peptide	1.43 and 1.04
Cc1cc(NC2CCN(C)CC2)ccc1-c1cc2c(N3CCC[C@H](C(=O)NCc4ccc(OC(F)(F)F)cc4)C3)ncnc2[nH]1	NCI-H2228	cell growth or viability, MTT		0.04 µg/mL, 72 h		inhibition	71.7%
N#C[C@@H]1CC(F)(F)CN1C(=O)CNC(=O)c1ccnc2c(NC(=O)[C@@H](N)CCCCNC(=O)CCOCCOCCOCCOCCOCCOCCNC(=O)CN3CCN(CC(=O)[O-])CCN(CC(=O)[O-])CCN(CC(=O)[O-])CC3)cccc12.[177Lu+3]	U-87 MG			4 h	reference: added dose	cell uptake	9.91 ± 0.22%
COc1ccc2c(c1)c(CC(=O)[Se]CC(=O)Nc1cccc(C(F)(F)F)c1)c(C)n2C(=O)c1ccc(Cl)cc1	NCI60 NSCLC subpanel	NCI60 five-dose screen				GI50	1830 nM
O=C(NCc1ccc(OC(F)(F)F)cc1)[C@H]1CCCN(c2ncnc3[nH]c(-c4cccs4)cc23)C1	NCI-H2228	cell growth or viability, MTT		0.04 µg/mL, 72 h		inhibition	31.6%
O=C(C[Se]C(=O)c1ccc2ccccc2n1)Nc1cccc(C(F)(F)F)c1	NCI60 renal subpanel	total growth inhibition, inhibitor		five-dose		mean TGI	3590 nM
CCc1nnc(NC(=O)c2cccc(C(=O)Nc3nnc(CC)s3)n2)s1	LDR	silenced CMV-GFP reporter derepression, qHTS				EC50	2510 nM
O=C(C[Se]C(=O)C12CC3CC(CC(C3)C1)C2)Nc1cccc(C(F)(F)F)c1	NCI60 renal subpanel	total growth inhibition, inhibitor		five-dose		mean TGI	8340 nM
C=C(NC(=O)c1csc(-c2nc3c(cc2O)-c2nc(cs2)C(=O)NC(C(C)O)C(=O)NC(=C(C)OC)c2nc(cs2)C(=O)NC2c4nc(cs4)C(=O)NC(COC(=O)c4c5c6c(cccc6n4O)COC(=O)C(OC4CC(C)(O)C(N(C)C)C(C)O4)C2OC5)c2nc-3cs2)n1)C(N)=O (stereo not drawn)			Sprague-Dawley rat, female, plasma	intravenous infusion, 6 mg/kg, multiple doses, day 7		Vz/F	37.3 L/kg
O=C(Nc1nnc2c1c(-c1ccc(Cl)cc1)nc1sc(=Cc3ccco3)c(=O)n12)c1ccccc1 (mixture of isomers)	A549/ATCC	NCI60 SRB		10 µM		growth percent	57.2%

Some of these lines once more:
SMILES	tested on	assay	test system	conditions	scale	endpoint	value
COC1CN([C@H]2CC[C@H]([C@@]3(C)Oc4c(Cl)cc(C(=O)NCc5c(SC)cc(C)[nH]c5=O)c(C)c4O3)CC2)C1		RNA-seq, measured: NRTN mouse homolog	mouse, HT-1376 xenograft, whole blood	dose not given	reference: vehicle	log2 fold change	3.78
Oc1c(/N=N/c2ccccn2)ccc2ccccc12	LDR	silenced CMV-GFP reporter derepression, qHTS				efficacy	124%
CC(C)c1ccc(N(C)c2ccc3c(c2)OCC[C@H]3CNc2cnccc2C(=O)O)cc1	TE-9	cell viability, CellTiter-Glo		7 days		IC50	6.89 nM
COC1=C2CC(C)CC(OC)C(O)C(C)C=C(C)C(OC(N)=O)C(OC)C=CC=C(C)C(=O)NC(=CC1=O)C2=O (stereo not drawn)	Rh30	ChIP-seq, measured: H3K36me3 peak		concentration not given, KLF2 TTS chr19:16435200-16441599	reference: untreated control	log fold change	-1.15
O=C(C[Se]C(=O)c1ccccc1Nc1ccccc1)Nc1cccc(C(F)(F)F)c1	NCI60 renal subpanel	cell growth		10 µM, 48 h, one-dose		mean growth percent	-79.6%
COc1ccc(CSc2ncccn2)cc1OS(=O)(=O)c1ccc([N+](=O)[O-])cc1	HUVEC expressing APJ	cell migration, Transwell		concentration not given		inhibition	~50%
